Assay results of several laboratories.
Each line is one published result; not all experiments were run side by side. ± gives the spread as reported. In brackets after ≈: the same amount, converted by molar mass.
Organism: Mycobacterium tuberculosis

Compound | test | system | conditions | scale | endpoint | value
CC1C(=NOCc2cn(-c3ccccc3)nn2)C(C)C(c2ccc(Br)cc2)OC1c1ccc(Br)cc1 (stereo not drawn) | resazurin | H37Rv | 6500 µg/mL |  | inhibition | 89%
NC(=O)c1cnccn1 | MABA | H37Rv ATCC 27294 |  |  | MIC | 3.12 µg/mL (≈ 25.3 µM)
Cc1nc(=O)c2cc(CN(C)c3ccc(C(=O)Nc4n[nH]c5ccccc45)s3)ccc2[nH]1 |  | pptT knockdown with ATc |  |  | MIC50 | 50.5 µM
COc1ccc(NC(=O)CN(C)S(=O)(=O)c2cc(C)cc3cn[nH]c23)cc1Cl |  | intrabacterial | 10 µM, 24 h | reference: untreated | pyruvate level | 10.6 ± 0.16 fold
CC(=O)c1sc(N/N=C/c2c(-c3ccc(Cl)cc3)nc3ncccn23)nc1C | MABA | H37Rv ATCC 27294 |  |  | MIC | 12.5 µg/mL (≈ 30.4 µM)
Cc1[nH]c(=O)c(CNC(=O)c2cccc(C(F)(F)F)c2)c2c1CCCC2 | microbial growth, resazurin | H37RV | 25 µg/mL |  | inhibition | 45.1%
C#CCN(Cc1ccc2[nH]c(N)nc(=O)c2c1)c1ccc(C(=O)N[C@@H](CCC(=O)O)C(=O)O)cc1 |  | pptT knockdown without ATc |  |  | MIC90 | 37.4 µM (≈ 17.9 µg/mL)
Cc1cc(Oc2nc(N3CC[C@@H](c4ccncc4)C3)ncc2F)[nH]n1 |  | THP-1 macrophages, H37Rv bioluminescent, non-replicating |  | reference: D4 over D4+1 | IC50 ratio | 45
CCOC(=O)/C=C1/SC(N/N=C/c2c(-c3ccc(OC)cc3)nc3ncccn23)=NC1=O | MABA | H37Rv ATCC 27294 |  |  | MIC | 50 µg/mL (≈ 111 µM)
C=C1CC(COc2ccc3c(C)cc(=O)oc3c2)(c2ccccc2)OC1=O (stereo not drawn) | microbial growth | H37RV | 551.9 µM |  | inhibition | 83%
Cc1ccc(N(CCc2nnc(S)o2)S(=O)(=O)c2ccc(C)cc2)cc1 | BACTEC radiometric | H37Rv | 12.5 µg/mL |  | inhibition | 36%
Cc1cc(C)c2cc(C(=O)NC3CCCCCC3)[nH]c2c1 | microbial killing | H37RV |  |  | MBC | 0.0313 µg/mL
CCn1cc(C(=O)NCCNCCO)c(=O)c2cc(OCc3cccc(C)c3)c(Cl)cc21 |  |  |  |  | MIC90 | 8 to 125 µM (≈ 3.66 to 57.2 µg/mL)
CC1C(=NOCc2cc(-c3ccc(Cl)cc3)no2)C(C)C(c2ccc(Cl)cc2)OC1c1ccc(Cl)cc1 (stereo not drawn) | resazurin | H37Rv | 6500 µg/mL |  | inhibition | 95%
O=S(=O)(c1ccccc1)N(CCc1nnc(S)o1)c1ccc(Cl)cc1 | BACTEC radiometric | H37Rv | 12.5 µg/mL |  | inhibition | 54%
COC(=O)c1cnc(NC(=O)c2ccccc2O)s1 |  | H37Rv | concentration not given, 120 h |  | antibacterial activity | inactive
O=C1c2ccccc2C(=O)N1c1nnc(-c2ccccc2Cl)s1 | bacterial growth | H37Rv |  |  | IC50 | 91 µM
COc1nc2ccc(Br)cc2cc1[C@@H](c1ccccc1)[C@@](O)(CCN(C)C)c1cccc2ccccc12 | ATP level, BacTiter-Glo luminescence | H37Rv | 2 days, hypoxic shift-down |  | IC50 | 1 µM

Compound | test | system | conditions | scale | endpoint | value
Cc1nc(=O)c2cc(CN(C)c3cccc(C(=O)Nc4n[nH]c5ccccc45)c3)ccc2[nH]1 | microbial growth | H37RV |  |  | MIC50 | 32.2 µM
O=C(Cc1cccs1)N[C@@H]1C(=O)N2C(C(=O)O)=C(CSc3cccc[n+]3[O-])CS[C@H]12 |  | H37Rv | replicating, with: clavulanate 25 µM |  | MBC | 1.6 µM
Cc1[nH]c(=O)c(CNC(=O)c2cnc(C(F)(F)F)nc2)c2c1CCCC2 | microbial growth, resazurin | H37RV | 20 µg/mL |  | inhibition | 12.3%
C#CCN(Cc1ccc2nc(N)nc(N)c2c1)c1ccc(C(=O)N[C@@H](CCC(=O)O)C(=O)O)cc1 |  | pptT knockdown without ATc |  |  | MIC90 | 3.2 µM (≈ 1.52 µg/mL)
O=C(NCCNCCO)c1cn(Cc2ccccc2)c2cc(Cl)c(OCc3cccc(C(F)(F)F)c3)cc2c1=O |  |  |  |  | MIC90 | 8 to 125 µM (≈ 4.59 to 71.7 µg/mL)
Cc1sc(-n2c(C)c3c(C)nnc(C)c3c2C)nc1-c1ccc(Br)cc1 | microbial growth | H37RV |  |  | MIC90 | 11.5 µM (≈ 4.91 µg/mL)
Cc1[nH]c(=O)c(CNC(=O)c2ccccc2C(F)(F)F)c2c1CCCC2 | microbial growth, resazurin | H37RV | 25 µg/mL |  | inhibition | 33.3%
CN[C@@H]1[C@H](O)[C@H](NC)[C@H]2O[C@]3(O)[C@H](O[C@@H]2[C@H]1O)O[C@H](C)C[C@H]3NC(=O)Cc1ccc(Cl)cn1 |  | MDR and XDR isolates |  |  | MIC50 | 0.8 µg/mL
Cc1ccc(N(CCc2nnc(S)o2)S(=O)(=O)c2ccccc2)cc1 | BACTEC radiometric | H37Rv | 12.5 µg/mL |  | inhibition | 34%
Cc1cc(S(=O)(=O)N(C)CC(=O)Nc2ccn(C)c(=O)c2)c2[nH]ncc2c1 |  | intrabacterial | 10 µM, 24 h | reference: untreated | pyruvate level | 37.3 ± 0.05 fold
CN[C@@H]1[C@H](O)[C@H](NC)[C@H]2O[C@]3(O)[C@H](O[C@@H]2[C@H]1O)O[C@H](C)C[C@H]3NC(=O)Cc1ccc(F)cn1 |  | MDR and XDR isolates |  |  | MIC50 | 1.6 µg/mL
Cc1nc(=O)c2cc(CN(C)c3cccc(C(=O)N[C@@]4(C(=O)O)CCC[C@H](C(=O)O)C4)c3)ccc2[nH]1 | microbial growth | H37RV |  |  | MIC90 | 34.8 µM (≈ 17.1 µg/mL)
Cc1ccn2c(-c3csc(Nc4ccccn4)n3)c(C)nc2c1 | ATP level, BacTiter-Glo luminescence | H37Rv | 2 days, hypoxic shift-down |  | IC50 | 7.4 µM
CC1C(=NNC(=O)c2ccncc2)C(C)C(c2ccc(Cl)cc2)OC1c1ccc(Cl)cc1 (stereo not drawn) | resazurin | H37Rv | 6500 µg/mL |  | inhibition | 90%
Nc1c2c(nc3sc4c(c13)CCCCC4)CCCC2 | ATP level, BacTiter-Glo luminescence | H37Rv | 2 days, hypoxic shift-down |  | IC50 | 3.4 µM
Cc1[nH]c(=O)c(CNC(=O)c2ccc(C(F)(F)F)cc2)c2c1CCCC2 | microbial growth, resazurin | H37RV | 25 µg/mL |  | inhibition | 99.3%
CN(C)c1ccc(-c2nc3ccccc3n2CCCOc2ccccc2)cc1 | microbial growth |  | 5 days |  | MIC50 | 27 µM
O=C1c2ccccc2C(=O)N1c1ccccc1Br | bacterial growth | H37Rv |  |  | IC50 | 75 µM
